{"data": "Results collected from several papers", "note": "Compare with care: the assays were run in different laboratories. ± gives the spread as reported."}
{"SMILES": "CCc1ccc(CC/C=C/c2ccc3c(c2)C(=O)CC3)cc1", "test system": "Sprague-Dawley rat, male", "setting": "oral, 120 mg/kg/day, 14 days", "endpoint": "Globulin", "result": "19.8 g/L"}
{"SMILES": "CCN1[C@@H](C(=O)NC23CCC(C(=O)O)(CC2)CC3)[C@H](c2cccc(Cl)c2F)[C@]2(C(=O)Nc3cc(Cl)ccc32)C12CCCCC2", "test system": "patients with advanced solid tumours", "setting": "200 mg", "endpoint": "oral mucositis incidence", "result": "0%"}
{"SMILES": "CC(C)CC(=O)OC[C@H]1O[C@@](C#N)(c2ccc3c(N)ncnn23)[C@H](O)[C@@H]1O", "test system": "Rats plasma", "setting": "5 µM, 60 min", "endpoint": "remaining compound", "result": "0%"}
{"SMILES": "COc1ncccc1-c1cnn2ccc(N3CCN(C(=O)OC(C)C)CC3)nc12", "test system": "mouse nerve ligation model, plasma", "setting": "oral, 10 mg/kg, 120 min after last dose, repeat dosing day 4", "endpoint": "drug concentration", "result": "1900 nM"}
{"SMILES": "CNC(=O)c1ccc(-c2cnc3ncc(Cc4ccc5ncccc5c4)n3n2)cc1F", "test system": "patients with advanced HCC", "setting": "oral, dose not given, grade 3/4, all patients", "endpoint": "drug-related blood creatinine increase", "result": "0 patients"}
{"SMILES": "NCCCC[C@@H]1NC(=O)[C@@H](Cc2c[nH]c3ccccc23)NC(=O)[C@H](c2ccccc2)NC(=O)[C@@H]2C[C@@H](OC(=O)NCCN)CN2C(=O)[C@H](Cc2ccccc2)NC(=O)[C@H](Cc2ccc(OCc3ccccc3)cc2)NC1=O", "test system": "healthy human volunteers", "setting": "600 µg twice daily", "endpoint": "subjects with adverse event Nasopharyngitis", "result": "1%"}
{"SMILES": "Cc1cccc(Cn2nc(C3CC3)c3c(NC(=O)c4cnc5cc(OCCN6CCN(C)CC6)ccn45)cccc32)n1", "assay": "refers to: Pyrexia", "test system": "human advanced solid tumours", "setting": "oral, 400 mg, all-causality", "endpoint": "adverse events incidence", "result": "42.9%"}
{"SMILES": "COc1ccc2nc3cc(Cl)ccc3c(Nc3cc(CN4CCCC4)c(O)c(CN4CCCC4)c3)c2n1", "test system": "mouse, blood", "setting": "intraperitoneal, 28 mg/kg", "endpoint": "mean platelet volume", "result": "6.25 fL"}
{"SMILES": "COC[C@@H](CC(C)C)NC(=O)c1ccc(C)c(C)c1", "test system": "bone marrow erythrocytes, mouse Hsd:ICR (CD-1), female", "setting": "oral, 624 mg/kg, 24 h", "endpoint": "PCE to total erythrocyte ratio", "result": 0.529}
{"SMILES": "CC(=O)c1c(C)c2cnc(Nc3ccc(C4CCN(CCS(C)(=O)=O)CC4)cn3)nc2n(C2CCCC2)c1=O", "test system": "human patients, plasma", "setting": "oral, 100 mg twice daily, day 21 multiple doses", "endpoint": "Tmax", "result": "2 h"}
{"SMILES": "CN1CC[C@@H](c2c(O)cc(O)c3c(=O)cc(-c4ccc(C(F)(F)F)cc4Cl)oc23)[C@@H]1CO", "assay": "refers to: rectal abscess", "test system": "B-cell malignancies or AML", "setting": "oral, 100 mg, grade 3 to 4, continuous dosing", "endpoint": "patients with adverse event", "result": "0%"}
{"SMILES": "C[C@@H]1NC(=O)[C@H](CCCCNC(=O)CO/N=C/C(=O)NCCCC[C@@H]2NC(=O)[C@@H](Cc3ccccc3)NC(=O)[C@H](CC(=O)O)NC(=O)CNC(=O)[C@H](CCCNC(=N)N)NC2=O)NC(=O)CNC(=O)[C@@H]2CCCN2C(=O)[C@H](CCCCNC(=O)CO/N=C/C(=O)NCCCC[C@@H]2NC(=O)[C@@H](Cc3ccccc3)NC(=O)[C@H](CC(=O)O)NC(=O)CNC(=O)[C@H](CCCNC(=N)N)NC2=O)NC(=O)[C@H](CCCCNC(=O)CN2CCCNCCNCCCNCC2)NC(=O)[C@H](CCCCNC(=O)CO/N=C/C(=O)NCCCC[C@@H]2NC(=O)[C@@H](Cc3ccccc3)NC(=O)[C@H](CC(=O)O)NC(=O)CNC(=O)[C@H](CCCNC(=N)N)NC2=O)NC(=O)CNC(=O)[C@@H]2CCCN2C(=O)[C@H](CCCCNC(=O)CO/N=C/C(=O)NCCCC[C@@H]2NC(=O)[C@@H](Cc3ccccc3)NC(=O)[C@H](CC(=O)O)NC(=O)CNC(=O)[C@H](CCCNC(=N)N)NC2=O)NC1=O [copper-64 labelled]", "assay": "biodistribution after PET", "test system": "mouse, U-87 MG tumour xenograft, tumor", "setting": "intravenous, 24 h", "endpoint": "tissue uptake", "result": "4.47 ± 0.37 %ID/g"}
{"SMILES": "CO[C@H]1C[C@@H]2CC[C@@H](C)[C@@](O)(O2)C(=O)C(=O)N2CCCC[C@H]2C(=O)O[C@H]([C@H](C)C[C@@H]2CC[C@@H](OC(=O)NCCOCCOCCOCCOCCOCCOCCOCCOCCC(=O)N3CCc4cc(Cn5nc(-c6ccc7oc(N)nc7c6)c6c(N)ncnc65)ccc4C3)[C@H](OC)C2)C[C@@H](O)[C@H](C)/C=C(\\C)[C@@H](O)[C@@H](OC)C(=O)[C@H](C)C[C@H](C)/C=C/C=C/C=C/1C", "assay": "phase 1 dose escalation", "test system": "advanced solid tumour patients", "setting": "intravenous, 16 mg weekly, any grade", "endpoint": "deaths due to TEAEs", "result": "0%"}
{"note": "For quick reference, copied from above:"}
{"SMILES": "COc1ccc2nc3cc(Cl)ccc3c(Nc3cc(CN4CCCC4)c(O)c(CN4CCCC4)c3)c2n1", "test system": "mouse, blood", "setting": "intraperitoneal, 28 mg/kg", "endpoint": "mean platelet volume", "result": "6.25 fL"}
{"SMILES": "COC[C@@H](CC(C)C)NC(=O)c1ccc(C)c(C)c1", "test system": "bone marrow erythrocytes, mouse Hsd:ICR (CD-1), female", "setting": "oral, 624 mg/kg, 24 h", "endpoint": "PCE to total erythrocyte ratio", "result": 0.529}
